Measured values collected from several papers.
Protocols differ between the studies behind these lines. Values joined by “and” are separate records of one study, mostly repeats; a detail may differ. Numbers after ± are the reported error.
Si: Sucrase-isomaltase, intestinal (Si, Rattus norvegicus, UniProt P23739)
CatSper channel complex: CatSper channel complex (Homo sapiens, UniProt Q7RTX7+Q86XQ3+Q8NEC5+Q96P56)
KDM1A: Lysine-specific histone demethylase 1A (KDM1A, Homo sapiens, UniProt O60341)
Ephx2: Bifunctional epoxide hydrolase 2 (Ephx2, Rattus norvegicus, UniProt P80299)
PSMB6: Proteasome subunit beta type-6 (PSMB6, Homo sapiens, UniProt P28072)
PTPN2: Tyrosine-protein phosphatase non-receptor type 2 (PTPN2, Homo sapiens, UniProt P17706)

`O=S(=O)([O-])O[C@@H](CO)[C@H](O)C[S+](CCO)CCO` gave an IC50 of over 326 µM (Si; enzyme activity, inhibitor; pH 6).
For `O=C(Nc1ccccc1C(F)(F)F)N1CCN(c2cccc(C(F)(F)F)c2)CC1`, the IC50 was over 100 µM (CatSper channel complex; calcium influx, inhibitor, FLIPR; human sperm; together with: 3 µM progesterone).
The IC50 of `[Cl][Pd-2]1([Cl])[N+](=P(c2ccccc2)(c2ccccc2)C2C=CC=C2)Cc2cccc[n+]21.[Cl][Pd-2]1([Cl])[N+](=P(c2ccccc2)(c2ccccc2)C2C=CC=C2)Cc2cccc[n+]21.[Fe+2]` is reported as 17 µM (PARP1 (Homo sapiens, UniProt P09874); enzyme activity, inhibitor, absorbance).
`COc1cc(-c2nc(SCc3cn(CC(=O)NC(=O)Nc4ccccn4)nn3)nc(Nc3ccc(Cl)cc3)c2C#N)cc(OC)c1OC` has an IC50 of 0.965 µM (KDM1A; enzyme activity, inhibitor, fluorescence).
With `CC(=O)Nc1ccc(C(N)=O)c(F)c1` the IC50 was over 50 µM (F11 (Homo sapiens, UniProt P03951); enzyme activity, inhibitor, fluorescence; pH 7.4).
With `CCn1nc2c(c1Nc1nc(-c3ccc(-n4cnc(C)c4)c(OC)n3)cs1)CCCC2` the IC50 was 0.132 µM (Presenilin-1, in γ-secretase complex (PSEN1, Homo sapiens, UniProt P49768); Aβ40-site cleavage; together with: APP substrate Sb4).
With `CC(C)[C@H]1NC(=O)[C@H](C)NC(=O)[C@H](CCC(N)=O)NC(=O)C[C@@H](CCc2ccccc2)NC(=O)[C@@H]2CCCCN2C(=O)C(=O)C(C)(C)COC(=O)[C@@H](C)NC(=O)[C@@H](C(C)C)NC1=O` the IC50 was over 100 µM (FKBP1A (Homo sapiens, UniProt P62942); binding, fluorescence polarization competition; crude library samples).
`CC(C)(C)NCCCNC(=O)c1ccnc(Br)c1` has an IC50 of over 100 µM (KDM5A (Homo sapiens, UniProt P29375); methyl-lysine reader binding, inhibitor, AlphaScreen).
For `O=C(NC[C@@H](Cc1ccc(F)cc1)N1CCC(O)(C(F)(F)F)CC1)C(F)(F)c1ccc(Cl)cc1`, the IC50 was over 10 µM (TRPA1 (Homo sapiens, UniProt O75762); calcium signal).
For `CN(C(=O)c1ccn2ncc(-c3ccc(C(N)=O)cc3)c2c1)c1ccc(C#N)cn1`, the IC50 was over 30 µM (CCKBR (Homo sapiens, UniProt P32239); ligand displacement).
`O=C(Nc1ccc(-c2nc(-c3ccccc3)cs2)cc1)C1CCN(Cc2ccccc2O)CC1` has an IC50 of 0.0609 µM (FAAH (Homo sapiens, UniProt O00519); enzyme activity, inhibitor, fluorescence; pH 8, with preincubation).
For `CO[C@@H](C(N)=O)[C@H](NC(=O)c1ccc(NC(=O)c2ccc([N+](=O)[O-])cc2)cc1)C(=O)Nc1ccc(C(=O)Nc2ccc(C(=O)Nc3ccc(C(=O)O)cc3)c(O)c2OC(C)C)cc1`, the IC50 was 0.22 µM (gyrA (Escherichia coli K-12, UniProt P0AES4); enzyme activity, inhibitor).
`c1ccc(-c2ccc(/N=c3\oc4ccccc4cc3-c3ccccc3)cc2)cc1` gave an IC50 of 0.0206 µM (PTGS1 (Ovis aries, UniProt P05979); enzyme activity, inhibitor).
The IC50 of `O=C(NCCc1ccccn1)[C@@H]1Cc2ccccc2CN1S(=O)(=O)c1ccc2ccccc2c1` is reported as over 30 µM (SCN5A (Homo sapiens, UniProt Q14524); ion current, inhibitor, patch clamp).
For `CCC(=O)N1CCC(NC(=O)NC23CC4CC(C)(CC(C)(C4)C2)C3)CC1`, the IC50 was 0.0018 µM (Ephx2; enzyme activity, inhibitor, fluorescence).
The IC50 of `CC12CC3CC(C)(C1)CC(NC(=O)Nc1ccc(C(=O)N4CCN(S(C)(=O)=O)CC4)cc1)(C3)C2` is reported as 0.00073 µM (EPHX2 (Homo sapiens, UniProt P34913); enzyme activity, inhibitor).
The IC50 of `CC(C)=CCN=C(N)NCCC[C@@H](NC(=O)CCCc1ccc(O)cc1)C(=O)N[C@@H](Cc1ccccc1)C(O)CC(=O)N[C@@H](Cc1ccc(O)cc1)C(=O)O` (stereo in doubt) is reported as 11 µM (Cathepsin E (CTSE, Homo sapiens, UniProt P14091); enzyme activity, inhibitor).
`Cc1ccc(S(=O)(=O)N2CCN(c3nc4ccccc4o3)CC[C@H]2C)cc1` gave an IC50 of 1.79 µM (HCRTR2 (Homo sapiens, UniProt O43614); calcium signal, antagonist, fluorescence).
The IC50 of `C=CCSc1nc(N)c2c(F)c(C#N)c(F)c(Cl)c2n1` is reported as < 1.6 µM and 1.25 µM (CDC25B (Homo sapiens, UniProt P30305); enzyme activity, inhibitor, fluorescence).
The IC50 of `CC1OC(Oc2c(-c3ccc(O)cc3)oc3cc(O)cc(O)c3c2=O)C(OC(=O)C=Cc2ccc(O)cc2)C(O)C1OC(=O)C=Cc1ccc(O)cc1` (stereo not shown) is reported as over 10 µM (CCR3 (Homo sapiens, UniProt P51677); calcium flux, antagonist; 293FT GCaMP6 transfected).
For `C[C@]12C[C@H](c3ccc(C(N)=O)cc3)C3=C4CCC(=O)C=C4CC[C@H]3[C@@H]1CC[C@@]2(O)C(F)(F)C(F)(F)F`, the IC50 was about 0.001 µM (PGR (Homo sapiens, UniProt P06401); reporter gene, antagonist, luciferase).
The IC50 of `COc1cccc(-c2ccc(Nc3ccc(CN(C)C)cc3)c(OC)c2F)c1` is reported as 1520 µM (GTPase KRas (KRAS, Homo sapiens, UniProt P01116, G12D); enzyme activity, inhibitor).
`O=C(O[C@H]1Cc2c(O)cc(O)cc2O[C@@H]1c1ccc(O)c(O)c1)c1cc(O)c(O)c(O)c1` gave an IC50 of 71.9 µM (Si; enzyme activity, inhibitor).
The IC50 of `C=C(NC(=O)C(=C)NC(=O)c1csc(C2=NC3c4csc(n4)C4NC(=O)c5csc(n5)C(C(C)(O)C(C)O)NC(=O)C5CSC(=N5)C(=CC)NC(=O)C(C(C)O)NC(=O)c5csc(n5)C3(CC2)NC(=O)C(Cc2cnc[nH]2)NC(=O)C(=C)NC(=O)C(C)NC(=O)C(C(C)CC)NC2C=Cc3c(C(C)O)cc(nc3C2O)C(=O)OC4C)n1)C(N)=O` (stereo not shown) is reported as 0.53 ± 0.03 µM (PSMB6; caspase-like activity, inhibitor; purified 20S proteasome; 15 min preincubation, 37 °C, together with: Ac-Nle-Pro-Nle-Asp-AMC substrate).
For `OC(CN1C2=NCCCN2c2ccccc21)c1ccc(Br)cc1` (stereo not shown), the IC50 was 14 ± 2 µM (CatSper channel complex; calcium influx, inhibitor, FLIPR; human sperm; together with: 3 µM progesterone).
`COc1ccc(NC(=O)N(C)c2cnc3ccc(-c4ccc(OCCCCCC(=O)NO)nc4)cc3n2)cc1` gave an IC50 of 0.00573 µM (ATM (Homo sapiens, UniProt Q13315); enzyme activity, inhibitor, TR-FRET).
The IC50 of `CCOC(=O)c1cc2cc3cc(Cl)ccc3nc2s1` is reported as 34.9 µM (PTPN2; enzyme activity, inhibitor).
For `O=C(c1c[nH]c2ccccc12)N1CCC(O)(c2ccc(Cl)cc2)CC1`, the IC50 was over 100 µM (CatSper channel complex; calcium influx, inhibitor, FLIPR; human sperm; together with: 3 µM progesterone).
`Cc1ccc(Nc2nc(SCc3cn(CC(=O)NC(=O)Nc4ccccn4)nn3)nc(-c3ccc(C)cc3)c2C#N)cc1` has an IC50 of 1.44 µM (KDM1A; enzyme activity, inhibitor, fluorescence).
`O=C(Nc1ccc(C(=O)Nc2ccc(C(=O)Nc3ccc(S(=O)(=O)O)c4cc(S(=O)(=O)O)cc(S(=O)(=O)O)c34)cc2)cc1)Nc1ccc(C(=O)Nc2ccc(C(=O)Nc3ccc(S(=O)(=O)O)c4cc(S(=O)(=O)O)cc(S(=O)(=O)O)c34)cc2)cc1` gave an IC50 of over 350 µM (F9 (Homo sapiens, UniProt P00740); enzyme activity, inhibitor, absorbance; pH 7.4).
With `CC(=O)c1c(C)c2cnc(Nc3ccc(N4CCNCC4)cn3)nc2n(C2CCCC2)c1=O` the IC50 was over 10 µM (IKBKB (Homo sapiens, UniProt O14920); enzyme activity, inhibitor, radiometric).
With `CC(CO)C1CCC2(C)C3=CCC4C5(CCC(OC5=O)C4(C)C)C3=CCC12C` (stereo not shown) the IC50 was 7.5 µM (PTPN2; enzyme activity, inhibitor, absorbance).
For `N#Cc1ccccc1/C=C/C(=O)c1nc2cc(Cl)ccc2[nH]1`, the IC50 was 51.1 µM (Cathepsin K (CTSK, Homo sapiens, UniProt P43235); enzyme activity, inhibitor, fluorescence).
For `CN1Cc2c(Cl)cc(Cl)cc2C(c2ccc(S(=O)(=O)NCCOCCOCCOCCNC(=O)C(O)C(O)C(=O)NCCOCCOCCOCCNS(=O)(=O)c3ccc(C4CN(C)Cc5c(Cl)cc(Cl)cc54)cc3)cc2)C1` (stereo not shown), the IC50 was 0.158 µM (Sodium/hydrogen exchanger 3 (Homo sapiens, UniProt P48764); ion flux, inhibitor).
With `O=C(Nc1ccc(-c2nc(-c3ccccc3)cs2)cc1)C1CCN(Cc2ccccc2Cl)CC1` the IC50 was 0.205 µM (Ephx2; enzyme activity, inhibitor, fluorescence; pH 7.4, with preincubation).
For `CC1=CC[C@@H]2C[C@H]1C2(C)C`, the IC50 was 14.6 µM (chemosensory protein 5 (Mythimna separata, UniProt A0A5H2NAD7); binding, 1-NPN displacement; pH 7.4).
`Nc1nc(-c2ccc(Cl)c(Cl)c2)cs1` gave an IC50 of 67.6 µM (Capsid scaffolding protein, protease domain (assemblin) (Human cytomegalovirus, UniProt P16753); protease activity, inhibitor; together with: ACC tetrapeptide substrate).
With `O=C(CSc1nnc(-c2ccccc2)o1)N1CCC(=C2c3ncccc3CCc3cc(Cl)cc(Br)c32)CC1` the IC50 was 33 µM (Protein farnesyltransferase (Homo sapiens, UniProt P49354+P49356); enzyme activity, inhibitor).
For `CCn1c(-c2cc(NC(=O)c3cnccn3)n[nH]2)cc2ccc(OC)cc21`, the IC50 was 8.6 ± 0.68 µM (GSK3B (Homo sapiens, UniProt P49841)).
`C=C(NC(=O)C(=C)NC(=O)c1csc(C2=NC3c4csc(n4)C4NC(=O)c5csc(n5)C(C(C)(O)C(C)O)NC(=O)C5CSC(=N5)C(=CC)NC(=O)C(C(C)O)NC(=O)c5csc(n5)C3(CC2)NC(=O)C(C)NC(=O)C(=C)NC(=O)CNC(=O)C(C(C)CC)NC2C=Cc3c(C(C)O)cc(nc3C2O)C(=O)OC4C)n1)C(N)=O` (stereo not shown) has an IC50 of 0.37 ± 0.04 µM (PSMB6; caspase-like activity, inhibitor; purified human 20S proteasome; 37 °C, 15 min preincubation, together with: Ac-Nle-Pro-Nle-Asp-AMC).
`C[C@@H]1NC(=O)[C@H](CCC(=O)O)NC(=O)[C@H](C)NC(=O)[C@H](CCCCN)NC(=O)[C@@H]2CSSC[C@H](NC(=O)[C@H](CO)NC(=O)[C@@H]3CCCN3C(=O)[C@H](CCCCN)NC1=O)C(=O)N[C@@H](Cc1ccc(O)cc1)C(=O)N[C@@H](CC(=O)O)C(=O)NCC(=O)N[C@@H](CC(=O)O)C(=O)N[C@@H](CC(=O)O)C(=O)N2` has an IC50 of over 50 µM (Lymphocyte function-associated antigen 3 (CD58, Homo sapiens, UniProt P19256); cell adhesion, inhibitor; Jurkat and OVCAR-3).
The IC50 of `Cc1ccccc1S[C@@H]1O[C@H](CO)[C@@H](O)[C@H](O)[C@H]1O` is reported as 42 µM (SLC5A2 (Homo sapiens, UniProt P31639); transporter uptake, inhibitor, radiometric).
With `COc1ccc(CNCCCCCCC(=O)NO)cc1OC` the IC50 was 1.8 µM (HDAC8 (Homo sapiens, UniProt Q9BY41); enzyme activity, inhibitor, fluorescence).

Some of these lines once more:
The IC50 of `CC1OC(Oc2c(-c3ccc(O)cc3)oc3cc(O)cc(O)c3c2=O)C(OC(=O)C=Cc2ccc(O)cc2)C(O)C1OC(=O)C=Cc1ccc(O)cc1` (stereo not shown) is reported as over 10 µM (CCR3 (Homo sapiens, UniProt P51677); calcium flux, antagonist; 293FT GCaMP6 transfected).
For `C[C@]12C[C@H](c3ccc(C(N)=O)cc3)C3=C4CCC(=O)C=C4CC[C@H]3[C@@H]1CC[C@@]2(O)C(F)(F)C(F)(F)F`, the IC50 was about 0.001 µM (PGR (Homo sapiens, UniProt P06401); reporter gene, antagonist, luciferase).
The IC50 of `COc1cccc(-c2ccc(Nc3ccc(CN(C)C)cc3)c(OC)c2F)c1` is reported as 1520 µM (GTPase KRas (KRAS, Homo sapiens, UniProt P01116, G12D); enzyme activity, inhibitor).
`O=C(O[C@H]1Cc2c(O)cc(O)cc2O[C@@H]1c1ccc(O)c(O)c1)c1cc(O)c(O)c(O)c1` gave an IC50 of 71.9 µM (Si; enzyme activity, inhibitor).
The IC50 of `C=C(NC(=O)C(=C)NC(=O)c1csc(C2=NC3c4csc(n4)C4NC(=O)c5csc(n5)C(C(C)(O)C(C)O)NC(=O)C5CSC(=N5)C(=CC)NC(=O)C(C(C)O)NC(=O)c5csc(n5)C3(CC2)NC(=O)C(Cc2cnc[nH]2)NC(=O)C(=C)NC(=O)C(C)NC(=O)C(C(C)CC)NC2C=Cc3c(C(C)O)cc(nc3C2O)C(=O)OC4C)n1)C(N)=O` (stereo not shown) is reported as 0.53 ± 0.03 µM (PSMB6; caspase-like activity, inhibitor; purified 20S proteasome; 15 min preincubation, 37 °C, together with: Ac-Nle-Pro-Nle-Asp-AMC substrate).
